Assay results collected from several papers.
Parts stem from different laboratories: compare values within a part only.

Series 1 — method: protein-binding microarray; molecule type: double-stranded DNA, one strand shown; medium: in vitro; concentration: 940 nM top; notes: 60-bp whole probe; added: salmon DNA 0.4 mg/ml; reference: random background probes; reading: higher = stronger binding; shared flanks, not repeated: GCCTAGCAC … GTCTTGATTCGCTTGACGCTGCTG
Target: Interferon regulatory factor 5, full length, phosphomimetic (IRF5, Homo sapiens, UniProt Q13568-2, residues 1-514, S451D/S453D/S456D/S462D)
| Strand | fitted relative affinity |
| --- | --- |
| GACGGTCTCGGACTGGGGAGGTGCTAG | 0.923 z-score |
| GACGAACTGGGGAATCGAGACGTGCTA | 0.459 z-score |
| TCAGTTATTAAATTTTCAACTGTGCTA | 0.325 z-score |
| TTTGGTATCCTTTTCCTTTAGTGCTAG | 1.76 z-score |
| GACGGACTGGGTTTAGGGACGTGCTAG | -0.222 z-score |
| TCACACTTGTGTTTGGGACTGTGCTAG | -0.0916 z-score |
| GACGGTTTCCTTTACCTGACGTGCTAG | 1.61 z-score |
| TTAGATATCAGTAACGATTAGTGCTAG | -0.0563 z-score |
| TCATTTGTCCCTATTTAACTGTGCTAG | 1.44 z-score |
| TTAGGTATCTTTTTCCTTTAGTGCTAG | 0.924 z-score |
| CACCACATTTTTTTCATTATGTGCTAG | 1.79 z-score |
| GGCGGTATCCTTTTCCTGACGTGCTAG | 0.794 z-score |
| TTAGCTCTCCTACTGCTTTAGTGCTAG | 0.325 z-score |
| ATGCATGTGCTGTCTCAGAGTGTGCTA | 0.169 z-score |
| GACGGTTTCGGTTTCAGGACGTGCTAG | 13.6 z-score |
| TTTTTTTTTTTTTTGTATTTGTGCTAG | 1.34 z-score |
| GACGGTTTCGGTTCTGGGACGTGCTAG | 13.3 z-score |
| GACGGTAACGGGTTTCGGGACGTGCTA | 2.28 z-score |
| TTAGAACTGAGTTTCGAATAGTGCTAG | 2.97 z-score |
| GACGGTTTCCTTTCCGTGACGTGCTAG | 1.65 z-score |

Series 2 — method: protein binding microarray; molecule type: double-stranded DNA, one strand shown; medium: in vitro; concentration: not given; reference: not given; reading: higher = stronger binding
Target: Histone acetyltransferase KAT6A, winged helix 1, GST fusion (KAT6A, Homo sapiens, UniProt Q92794, residues 1-85)
Notes: 8-mer, flanks averaged, mean of 2 arrays, mostly near background
Target sequence (chain): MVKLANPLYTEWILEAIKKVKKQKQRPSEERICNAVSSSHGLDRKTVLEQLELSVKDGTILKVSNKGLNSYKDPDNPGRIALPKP
| Strand | E-score |
| --- | --- |
| TATATCGA | 0.0262 |
| GCGGTTAC | 0.364 |
| TGGAAGAA | -0.188 |
| AGCCGCGA | 0.379 |
| AAACAGGT | -0.0455 |
| CCCTGCGG | 0.122 |
| CCTAAGTA | -0.0692 |
| CGATCAAA | -0.221 |
| AATTGGTG | -0.256 |
| CGCAGTTA | 0.15 |
| ACACCCAC | -0.223 |
| CGCCAAAC | 0.106 |
| CAAACAAG | -0.103 |
| AAAGAGGT | -0.135 |
| CCACGTGG | -0.0862 |
| GGACTGTA | -0.148 |
| AGGAGAGC | -0.0486 |
| AGGGACTC | 0.0322 |
| GGTATTTA | -0.00374 |
| AGCACCCA | -0.189 |
| CCCATGTC | -0.221 |
| CATTCCAG | -0.23 |

Series 3 — method: RNA Bind-n-Seq; molecule type: RNA; medium: in vitro; concentration: 365 nM; reference: no-protein control; reading: higher = stronger binding
Target: RNA binding protein fox-1 homolog 2, RRM domain, GST-SBP tag (RBFOX2, Homo sapiens, UniProt O43251-10, residues 100-194)
Notes: natural RNA segment, single round, ends assumed
Shared flanks, not repeated: GGGAGUUCUACAGUCCGACGAUC … UGGAAUUCUCGGGUGCCAA
Construct (chain): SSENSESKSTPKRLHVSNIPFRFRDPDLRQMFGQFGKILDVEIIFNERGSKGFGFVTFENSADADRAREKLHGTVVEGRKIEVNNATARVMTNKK
| Strand | RBNS enrichment (R) |
| --- | --- |
| UUCCUCCGACCUGUGUAGGGUGUGGACCCAGUAAGGGCUGGGAAUUUCUUACUUUCCCACCCGCUUUCUCUCUGGUCUUCUCCCAGGCUGGAUCUGGGCGAAGUGUCACU | 0.203 |
| UUUAAACCGGCCCCACAUGAAGAGAACAUCCCUUGAGACGAAUUUGGAGACUGGGAUUAGAGCCUUUGGAGGUCAAAGCAAAUUAAGAUUUUUAUUUAAGAAUAAAAGAG | 0.59 |
| UUCUUACAUGAUAAGCAGAUUGAAUACAACACCAGCAGCUUGCCUUAGAAAAGGAGAAAGGAAUUCCUUUUCCCGCCCGAACAUGAAGAAAAAUGACCUGACCCUGUAGA | 0.572 |
| GCAGGGUAAGGGUGGGCACAUUUAGGCCUCUUCUCCUCACACUGGCCCUGCCAUCAGCUUUUGGGGCCUCAGCAAGGCCUCUCUUUCUCCCCGUUGGUGAUGAAAGGCCU | 0.483 |
| UCCUUUCUUUCUUCCCUCUGUUAUUCAUUCAUCAAGCAGGUUAAAGCCAUUGUGCUAAGAUCUAAUCUGAGGACACUAUAAUGGCCCUGUCGUCAGGGAAGCCCGUGAUC | 0.435 |
| CUCUCCGCUCUUUCCAGCAAAGCUGCUCAGAGAGGGUGUCCAGCACAGUGGAGAGGCCGGAAGUGAGACGGGCAGACGGCACCUGCAGCCUGAAACGCACCGCUCCUGCG | 0.567 |
| AUAAAGAAGGUAGCUCAGCGCCACUGAGAUUGUGUUCUGCAUAAUAUUUGGAAGGCUUCCAUUUCCAUUGAAAACAAAUCCAUGAGUGAGAGGGAAAGUCUAGUAUCAAU | 0.794 |
| GGAAGACAACAGAAACACAAGGAGGCGGCUGUGGCCGGGCUGGACUGUGCUGGGGUUUGUUGUGAUGGCCACUCGGUGACCUGGCGGUCCCUACGCAAUAGCAGCUGCCU | 0.512 |
| AAAUAUAACAAUGUCUGAGUUUCACCUAAGAUGUUUUUGUGCCAUAUGCUGGAUAUCCAGGUUCUCGCCAGGCCCCGAUACAUGAAUAACAAACCCAAGAAACGCAUCCC | 0.514 |
| UCAGACGCUGGCUUGAGAGGAGCCCCGCACCUUGGGCACCAGGGAGUGCCAUCCGCCUCCCAGUCCGGUGUCACUCACCCAACCUUGUACAUGACUAGCUCUCCCAGUGU | 0.572 |
| CCAUCAAGUUCCCAGCUUUUCAGGAAUGAAAGAAGUUCAGCAGUCAGAUAAUCCUUGUGUCUUGGGUCAGUUUGGCCCUGGCCCUAGAGUGAGGCAAGCCCUUCCUAUGA | 0.384 |
| UCCAUCAACACUGCGCCGGGUACCAUGGACGGCCCCGUCAGCCACACCUGUCAGCCCAAGCAGAGUGAUUCAGGGGCUCCCCGGGGGCAGACACCUGUGCACCCCAUGAG | 0.301 |

Series 4 — method: RNA Bind-n-Seq; molecule type: RNA; medium: in vitro; concentration: not given; reference: input RNA pool; reading: higher = stronger binding
Target: RING finger protein unkempt homolog, zinc fingers 1-6, GST-SBP tag (UNK, Homo sapiens, UniProt Q9C0B0, residues 30-357)
Notes: RNA with constant flanks, human and mouse sites, ends assumed
Shared flanks, not repeated: GGGAGUUCUACAGUCCGACGAUC … CAACAGAGGAUUGAGCAUCA
Residues (chain): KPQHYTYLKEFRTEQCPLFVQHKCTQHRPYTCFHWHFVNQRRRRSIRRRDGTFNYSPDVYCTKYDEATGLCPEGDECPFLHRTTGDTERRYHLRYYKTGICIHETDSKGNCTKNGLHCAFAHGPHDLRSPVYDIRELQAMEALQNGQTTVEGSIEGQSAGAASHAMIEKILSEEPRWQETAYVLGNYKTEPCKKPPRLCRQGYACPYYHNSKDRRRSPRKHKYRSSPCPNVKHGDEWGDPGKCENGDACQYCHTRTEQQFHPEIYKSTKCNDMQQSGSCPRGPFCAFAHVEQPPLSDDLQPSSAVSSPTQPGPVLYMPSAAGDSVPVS
| Strand | bound/input enrichment |
| --- | --- |
| UUCAUGGAAAUGAGUGUUGAGCAGGAAAUUCUGGUGACUGGUAUCAAGGUUGUCGAUCUGCUAGCUCCCUAUGCCAAGGGUGGCAAAAUUGGGCUUUUUGGUGGUGCUGGAGUUGGCAAG | 0.386 ratio |
| AUCUUGCAGGCAGGAUUGAUUUGAACAGGGAUUACUUCAACACACAUUUGUUUGUCUUUAUCUUUGUGUCAUUAUUGCAUGAUGUUGUUCGCUUAGAGAUGGCAUCCUUUUCUUACCAUU | 0.201 ratio |
| GAGCUUCACUCUUCUGAGAAAGGUUUAAAAGUAGAGGAAAAUAUUCAAAAGCAAAGUCAACAAACAAAGCUUUCUUCAGAUGAUAAAACCGAACGAAAAAGUAAACAUAGGAAUGAAAGG | 1.1 ratio |
| CGGAGGCGCUACCCUCAGAUCUAUGCCAGCAGCCACAAGCUGCAGCUGGAUGUCACCUCAAUAGUGCUCAGCGCCCACGACUUCUACCAUGCCAUGCAGAACAUCGUGCCUGCUUCCCAA | 0.063 ratio |
| ACCAGAUUCUGCCUCAUCUGUAACUAUGUCAGUCGAAUAAUUGAACCCCUCACUUCUAGAUGUUCAAAAUUCCGCUUCAAGCCUCUGUCAGAUAAGAUUCAACAGGAGCGAUUACUGGAU | 1.47 ratio |
| GUGGUUUGUCUUAUCUCCUGCCUUGAUCUUCCAUGUCAUUUCCCAGUGGGCAACUAUCAUUAGUUUAUACCUCGAUUUUAUUUGCCCUGUGUAAUUUUUAACUAAAAAUGUUACAUAACC | 0.548 ratio |
| AGCUCCCCAUAUUUCCGGGACCAUUCAGCGUUAAGUACCAUGAGUGGCUUGUCAAUAUCAGUGAUUAAAAAUCCCAAUGUGUUUGAGCAGUUGCUUUCUUUUUGUUACACUGGAAGAAUG | 0.21 ratio |
| AUUCAUCGGAUUCGACAUUUUUAUAUGAGAAAAGUCAAAUUUACUCAACAGAAUUACCAUGACAGACUGUCACAGAUUCUGUCGGAUUUCCCCAAAUUGGAUGAUAUCCAUCCGUUUUAU | 0.16 ratio |
| GAUCAUAAGAAAGAGCUGAGAAAACUCAAUAUGUCUAUACUGAUUAAUUUCUUAGACCUUUUAGACAUCUUAAUAAGAAGUCCUGGGAGUAUAAAACGAGAAGAAAAGCUAGAAGAUCUU | 0.28 ratio |
| CCAACAUUGACCAAAAAGGAGACAAUUUCUUUGCAAAUGGAAGAGUUUAAUACUGCAAUUUAUUCCAAUGAUGACUUACUUUCUUCUAAGGAAGACAAAAUGAAAGAAAGUGAAACAUUU | 0.132 ratio |
| GACACGGUGGCCUGGCUCAAAAUGGACAAGAAGGUGUUGGAUCAUGAUGUUUCGAAGGAAGAACCAGUUACCUUUCACUUCCUGGCCAAAUUUUAUCCUGAAAAUGCUGAGGAGGAGCUA | 0.213 ratio |

Excerpt of the above (series 2):
| Strand | E-score |
| --- | --- |
| CGATCAAA | -0.221 |
| AATTGGTG | -0.256 |
| CGCAGTTA | 0.15 |
| ACACCCAC | -0.223 |
| CGCCAAAC | 0.106 |
| CAAACAAG | -0.103 |
| AAAGAGGT | -0.135 |
| CCACGTGG | -0.0862 |
| GGACTGTA | -0.148 |
